Experimental data gathered from unrelated publications.
Each numbered part is a random draw from the data of one study; scales do not carry over between parts. Substitutions count along the parent as printed.

Series 1
Target: RING finger protein unkempt homolog, zinc fingers 1-6, SBP tag (UNK, Homo sapiens, UniProt Q9C0B0, residues 30-357)
Chain of UniProt Q9C0B0 (30-357, looked up): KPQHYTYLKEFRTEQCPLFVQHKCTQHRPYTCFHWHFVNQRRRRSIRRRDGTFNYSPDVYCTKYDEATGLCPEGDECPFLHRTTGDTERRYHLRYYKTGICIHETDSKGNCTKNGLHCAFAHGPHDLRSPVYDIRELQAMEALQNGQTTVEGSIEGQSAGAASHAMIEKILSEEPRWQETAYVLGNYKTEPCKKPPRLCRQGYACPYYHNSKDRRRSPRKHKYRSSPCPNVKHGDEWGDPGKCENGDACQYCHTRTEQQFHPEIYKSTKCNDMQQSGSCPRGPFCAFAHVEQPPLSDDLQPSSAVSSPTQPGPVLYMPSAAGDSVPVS
Technique: RNA Bind-n-Seq
Molecule type: RNA
Medium: in vitro
Tested at: 100 nM
Notes: RNA with constant flanks, vertebrate orthologous sites, ends assumed
Baseline: input RNA pool
Reading: higher = stronger binding
Constant ends, left off below: GGGAGUUCUACAGUCCGACGAUC … CAACAGAGGAUUGAGCAUCA
Oligonucleotide	bound/input enrichment [ratio]
AAGCCCUGUGAAGGUCUACUGACCGCUCACUAGAGUCUGCUAUCUGUAAACACUUCUGUUUAGUCCUAUCAUUGUAUAAUUGAUGUUCUUUAAAACUGUCGAUGUAAAACAGGGCUUAUG	0.339
ACAUUCAGUGUGGUGCGUGUACUCUGCCAGUGCUCAUCAUCCCUCUUCAUGCCACUGUCCUUAGUUACACGAAUUUCAUAUUUUUAAAAGUUUUACAAUGCUGUAUAUUCAAAGAUUUGU	0.698
UGUCUUGGUUUCGGGUAGAGGGGAGGGAGGGGUAGGACAGUGUGGAAUCUCUAGGGUGUAUGGGUAGAUAGGCUACACGGUUAGUUCUAAUUGGGCCUUUAUGUUAAAAACCUCUAGGGG	0.619
CAGCUGAUUCACUUAUUGGGCGAGCUGCACAUAUAGCUGUUCUUGAUUCAGAAAUAUUUUUAGAGAAAUUCUUCCUGGUUGCUGCCCUCAAAUAUUUCCAAUAGAUUAAAAACAUUGUUA	1.33
AAAUUCAUCUCUUUUUAUAUGUCCAAAAAUGGGUUUAAAUUUUUAAACAGUUGUUUUAAUUAGCUCUGCUGUCAUGAAGUAUUAUUAUAGUUCACCACAAACGUAUCUGUCUGAAUUACU	0.681
UAUAAUUAUGAAAAUCUAAAGGAUUUUUAAUGUUUAAUUUCCCCCAGCAUCUAUAUUAAGACCUCUUUUUUCCAGGCAGAUCAUUCAGAGUGUGCGAGUGUGUGUGCACAUGUUACAAAG	0.535
UACAAUCUUACACUUAAACUGGUAUUUUCAAACAAUAGGAAAUUUUCUUUUUUUACAGAUUAGUGUAUCUGGUUUCUGUAUGGAAGACUAAACUCAUGUUUAUUGCUAAAUGUGGUCUUU	0.331
AAAAACUGUUGUCUGAAAUGUCUACCCAGAGAAGUGUUGCCUUAUAAAUAUCAAAUAAUUUAGUUAGGUUCUUCUUAGGUAUUAAAUUACAUGUCAAGCAUUUAAAGUGAAUUUGAGGUG	0.286
UGUCUGCCUCGUUCUGAAAUUUACACAGUAGACCGUUUGUCAUCCAUGCUGUCCCACAAAUAGUUUUUUGUUUACGAUUUACGACAGGUUUAUGUUACUUCUAUUUGAAUUUCUAUAUUU	1.02
UCCUAUGUAGCAAUUAGAUCCCCGCCCCCACUAUUUCAUGCAGGAAAAGAAAUAUCCAAAUAGAUUCCUCACCCAUCUGAUUAUACUGCUCUGAGUUUACUGUCUAUUACUUUUUACAUA	3.79
CUCUACGGGCCUCGCAGAGUUGAAAUAAUGGAAGAGGAAAGUGAACAGUAAUCUUCAGUUUAGUAUUUAUGCCUAGGUGUGAAAUGUUUUUUGUUGAUCAUUUCUAUAAUCCAGAGCUUU	1.41

Series 2
Target: ABI1, truncated, D143A, DHFR fusion (Arabidopsis thaliana)
Technique: DHFR PCA, deep sequencing
Medium: yeast
Notes: methotrexate growth selection, single substitutions
With: (+)-ABA 17 µM
Baseline: wild-type fitted maximum
Reading: higher = stronger binding
Parent: PYL1, truncated, DHFR fusion (Arabidopsis thaliana); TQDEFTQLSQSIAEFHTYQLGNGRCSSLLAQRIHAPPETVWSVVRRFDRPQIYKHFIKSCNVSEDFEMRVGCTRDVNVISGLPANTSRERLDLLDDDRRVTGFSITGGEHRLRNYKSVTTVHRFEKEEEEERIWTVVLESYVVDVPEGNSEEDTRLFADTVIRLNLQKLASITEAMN
Change	relative binding score
F15C	35.7%
M68P	69%
N22Q	87.4%
M68W	40.3%
H110V	2.97%
V145K	29.6%
E4D	78.6%
S171F	77.9%
N165D	5.94%

Series 3
Target: Interferon regulatory factor 5, full length, phosphomimetic (IRF5, Homo sapiens, UniProt Q13568-2, residues 1-514, S451D/S453D/S456D/S462D)
Technique: protein-binding microarray
Molecule type: double-stranded DNA, one strand shown
Medium: in vitro
Tested at: 940 nM top
Notes: 60-bp whole probe
With: salmon DNA 0.4 mg/ml
Baseline: random background probes
Reading: higher = stronger binding
Constant ends, left off below: GCCTAGCAC … GTCTTGATTCGCTTGACGCTGCTG
Oligonucleotide	fitted relative affinity [z-score]
GACGGTTGCGGGACTGGGGACGTGCTA	0.101
GACGGTTTCGGACTGGGCACGTGCTAG	5.96
GACGGTTTTGGGTATCGGGACGTGCTA	2.69
TCATAACTCATTCTCCAACTGTGCTAG	0.974
TTAGAGCTGAGACTGGATTAGTGCTAG	-0.236
TTAGGTATCGGTTTCGGATAGTGCTAG	10.9
GATGGTTTCCTTTTCCTGACGTGCTAG	2.63
TCAACTCCAGTTCTGGGACTGTGCTAG	-0.502
TTAGGACTGGGGTTTTGGTTAGTGCTA	0.533
CTAGTTTCCATTTTCAGAATGTGCTAG	2.91
TTTTTTGTATTTTTGATAGAGTGCTAG	1.09
TGGGCACACTTTGGGTCCTGGTGCTAG	-0.795
CTCATGTTACATTTATATCTGTGCTAG	0.72
TTAGATTTCAGACTGGAGTAGTGCTAG	-0.315
TTAGATCTAAGACTGGATTAGTGCTAG	-0.541
TTAGATATCAGTTTCTATTAGTGCTAG	2.86
TTAGGGCTGGACTATCGGTTAGTGCTA	-0.0229
TATTATATATTTATGTATACGTGCTAG	0.464
TTTCTCTCATTATGTGGGTTGTGCTAG	4.77
GACGATTTCGGGACTGGCGACGTGCTA	0.0963
TTAGGTTTCCTTGCCCTTTAGTGCTAG	1.37
GACGAAATCGGGTTTCGAGACGTGCTA	2.14
TTAGGTCGCGGTATCGGTTAGTGCTAG	4
CTTGCTTTGTGCCTAGCCTTGTGCTAG	-0.54
TCAACTTCGGCCTCTAGGACTGTGCTA	-0.124

Series 4
Target: UBE2L6 UBC core domain (UniProt O14933)
Technique: yeast two-hybrid
Medium: yeast
Notes: mostly zero background
Baseline: not given
Reading: higher = stronger interaction
B1: CUL9 RING domain (UniProt Q8IWT3); chain AQAVPVRPDHCPVCVSPLGCDDDLPSLCCMHYCCKSCWNEYLTTRIEQNLVLNCTCPIADCPAQPTGAFIR
B2: RNF25 RING domain (UniProt Q96BH1); chain LTDNNIPHGQCVICLYGFQEKEAFTKTPCYHYFHCHCLARYIQHMEQELKAQGQEQEQERQHATTKQKAVGVQCPVCREPLVYDLASL
B3: PHF21A RING domain (UniProt Q96BD5); chain SPTSTDGDIHEDFCSVCRKSGQLLMCDTCSRVYHLDCLDPPLKTIPKGMWICPRCQDQMLKKEEAIPW
B4: TRIM69 RING domain (UniProt Q86WT6); chain VIQDITMELHCPLCNDWFRDPLMLSCGHNFCEACIQDFWRLQAKETFCPECKMLCQYNNCTF
B5: UHRF2 RING domain (UniProt Q96PU4); chain CGGDPEKKCHSCSCRVCGGKHEPNMQLLCDECNVAYHIYCLNPPLDKVPEEEYWYCPSCKTDSSEVVKAGER
Target sequence (chain): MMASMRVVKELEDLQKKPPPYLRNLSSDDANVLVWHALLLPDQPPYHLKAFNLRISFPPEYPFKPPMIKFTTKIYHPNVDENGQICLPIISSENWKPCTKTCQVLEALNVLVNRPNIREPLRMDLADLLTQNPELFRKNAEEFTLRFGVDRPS
Molecule	lacZ reporter activity
B1 (CUL9 RING domain)	0
FASPPDSNFVCSVCHGVLKRPARLPCSHIFCKKCILRWLARQKTCPCCRKEVKRKKVVH (RNF151 RING domain (UniProt Q2KHN1))	0
B2 (RNF25 RING domain)	3720
DDENSDNSNECVVCLSDLRDTLILPCRHLCLCTSCADTLRYQANNCPICRLPFRALLQIR (MGRN1 RING domain (UniProt O60291))	0
FPEHFVKSISCQICEHILADPVETNCKHVFCRVCILRCLKVMGSYCPSCRYPCFPTDLES (RAG1 RING domain (UniProt P15918))	0
B3 (PHF21A RING domain)	0
QLRRLQEERTCKVCMDKEVSIVFIPCGHLVVCKDCAPSLRKCPICRSTIKGTVRTF (BIRC3 RING domain (UniProt Q13489))	0
DAIPSLSECQCGICMEILVEPVTLPCNHTLCKPCFQSTVEKASLCCPFCRRRVSSWTRYH (RNF168 RING domain (UniProt Q8IYW5))	0
B4 (TRIM69 RING domain)	0
B5 (UHRF2 RING domain)	0

Series 5
Target: CCNE2, cyclin fold, Cln2 fusion (human)
Technique: yeast growth competition, sequencing
Medium: yeast
Notes: weak parent motif
Baseline: not given
Reading: higher = stronger binding
Parent: PKMYT1 docking peptide (human); SFEPRNLLSLFED; partner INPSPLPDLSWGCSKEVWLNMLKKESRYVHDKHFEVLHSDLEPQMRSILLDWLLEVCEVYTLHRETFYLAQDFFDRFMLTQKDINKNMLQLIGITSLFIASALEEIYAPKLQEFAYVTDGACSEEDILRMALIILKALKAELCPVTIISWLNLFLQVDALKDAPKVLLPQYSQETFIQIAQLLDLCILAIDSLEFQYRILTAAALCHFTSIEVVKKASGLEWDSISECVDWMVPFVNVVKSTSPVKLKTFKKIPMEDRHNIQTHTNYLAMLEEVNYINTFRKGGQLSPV
Change	normalised enrichment score
SFQPRNLLSLFED [E3Q]	0.509
SFEPRNLLKLFED [S9K]	-0.176
SFPPRNLLSLFED [E3P]	0.454
SFEPRNLPSLFED [L8P]	-0.179
SFEPVNLLSLFED [R5V]	0.416
SFEPANLLSLFED [R5A]	-0.0923
SFEVRNLLSLFED [P4V]	-0.551
SEEPRNLLSLFED [F2E]	-1.04
SFEPRNLLSKFED [L10K]	-0.889
SFEPSNLLSLFED [R5S]	-0.206
SFEPRNLLDLFED [S9D]	0.0399
SFEPRNLLFLFED [S9F]	0.575
SFEPRNNLSLFED [L7N]	-0.579
RFEPRNLLSLFED [S1R]	0.405
SFEPRNLLSLSED [F11S]	0.494
SWEPRNLLSLFED [F2W]	0.0653
SFEPRNLLSLFEH [D13H]	-0.565
SFEPRNLLSLFES [D13S]	0.711

Series 6
Target: Prothrombin, mature alpha-thrombin (F2, Homo sapiens, UniProt P00734)
Technique: aptamer microarray, sandwich
Molecule type: DNA with 2'F-ANA
Medium: in vitro
Tested at: 200 nM
Notes: whole 15-mer aptamer, many near background
With: Cy3 exosite-II aptamer, 400 nM
Reading: higher = stronger binding
Oligonucleotide: GGTTGGTGTGGTTGG
Modification	mean fluorescence intensity
2'F-ANA at 1 3 6 9	233 a.u.
2'F-ANA at 1 3 7 8 9 10 11 12 13 14 15	64.8 a.u.
2'F-ANA at 2 3 6	877 a.u.
2'F-ANA at 2 3 4 5 6 9 10 11	78.9 a.u.
2'F-ANA at 2 5 7 9 13 14	50.5 a.u.
2'F-ANA at 3 7 8 12 13 14	762 a.u.
2'F-ANA at 1 3 5 9 10 11 14	73.5 a.u.
2'F-ANA at 1 2 3 5 9 15	63.4 a.u.
2'F-ANA at 1 3 5 8 12 13	107 a.u.
2'F-ANA at 1 5 8 9 11 12 14 15	120 a.u.
2'F-ANA at 1 2 3 4 5 6 7 8 10 11 12 13	51.4 a.u.
2'F-ANA at 6 8 12 13	690 a.u.
2'F-ANA at 2 3 5 6 7 9 12 13 15	109 a.u.
2'F-ANA at 2 3 4 5 7 10 11 12 13 14	48.2 a.u.
2'F-ANA at 5 6 7 9 15	94 a.u.
2'F-ANA at 2 4 6 7 8 10 11 15	77.4 a.u.
2'F-ANA at 8 9 11 15	477 a.u.
2'F-ANA at 1 3 4 5 7 8 11 12	140 a.u.
